Measurements collected from several papers.
Protocols differ between the studies behind these lines. Several values in a cell are separate wells, animals, samples, runs or records.
CXCR2: C-X-C chemokine receptor type 2 (CXCR2, Homo sapiens, UniProt P25025)
UniProt Q9Y2J8, sequence (whole entry, looked up): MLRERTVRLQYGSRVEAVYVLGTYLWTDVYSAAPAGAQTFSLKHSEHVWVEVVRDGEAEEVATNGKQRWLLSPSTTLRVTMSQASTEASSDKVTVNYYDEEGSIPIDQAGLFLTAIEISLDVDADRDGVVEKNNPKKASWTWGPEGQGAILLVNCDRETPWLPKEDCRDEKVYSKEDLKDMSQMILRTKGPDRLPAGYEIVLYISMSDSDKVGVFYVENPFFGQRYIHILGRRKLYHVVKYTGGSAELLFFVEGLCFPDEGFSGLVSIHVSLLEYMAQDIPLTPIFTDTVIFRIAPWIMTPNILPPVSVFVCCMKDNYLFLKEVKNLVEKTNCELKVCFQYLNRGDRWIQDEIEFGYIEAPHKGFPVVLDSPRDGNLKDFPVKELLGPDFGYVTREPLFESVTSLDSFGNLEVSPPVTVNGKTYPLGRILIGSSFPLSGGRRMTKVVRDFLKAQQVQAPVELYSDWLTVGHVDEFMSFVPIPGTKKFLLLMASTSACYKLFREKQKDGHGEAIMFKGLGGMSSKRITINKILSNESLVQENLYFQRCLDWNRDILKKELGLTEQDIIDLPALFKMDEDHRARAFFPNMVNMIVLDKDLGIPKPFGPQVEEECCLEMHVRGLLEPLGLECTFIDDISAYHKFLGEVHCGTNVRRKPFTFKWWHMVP
UniProt P25025, sequence (whole entry, looked up): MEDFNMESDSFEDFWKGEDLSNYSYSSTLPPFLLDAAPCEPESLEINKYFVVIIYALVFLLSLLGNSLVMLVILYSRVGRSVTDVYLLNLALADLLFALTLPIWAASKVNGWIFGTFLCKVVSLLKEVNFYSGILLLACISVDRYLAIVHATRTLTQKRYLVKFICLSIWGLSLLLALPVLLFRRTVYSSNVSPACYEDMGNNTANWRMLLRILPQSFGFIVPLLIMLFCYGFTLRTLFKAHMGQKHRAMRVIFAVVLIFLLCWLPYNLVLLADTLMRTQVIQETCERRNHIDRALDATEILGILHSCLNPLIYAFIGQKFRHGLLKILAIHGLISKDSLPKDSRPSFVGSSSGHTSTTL
UniProt P08588, sequence (whole entry, looked up): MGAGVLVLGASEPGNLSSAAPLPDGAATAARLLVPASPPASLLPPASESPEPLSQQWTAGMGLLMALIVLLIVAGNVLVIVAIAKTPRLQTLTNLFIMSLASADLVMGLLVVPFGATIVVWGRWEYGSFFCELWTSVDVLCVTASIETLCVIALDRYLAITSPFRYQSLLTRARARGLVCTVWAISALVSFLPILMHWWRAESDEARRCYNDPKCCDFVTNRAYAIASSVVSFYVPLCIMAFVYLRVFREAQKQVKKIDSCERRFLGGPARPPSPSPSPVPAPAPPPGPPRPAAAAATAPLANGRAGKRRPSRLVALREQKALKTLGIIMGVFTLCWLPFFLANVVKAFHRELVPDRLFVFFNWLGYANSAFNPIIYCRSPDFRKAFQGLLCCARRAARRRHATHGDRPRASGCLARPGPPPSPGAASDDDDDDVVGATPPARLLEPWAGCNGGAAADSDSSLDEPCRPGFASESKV
UniProt P50406, sequence (whole entry, looked up): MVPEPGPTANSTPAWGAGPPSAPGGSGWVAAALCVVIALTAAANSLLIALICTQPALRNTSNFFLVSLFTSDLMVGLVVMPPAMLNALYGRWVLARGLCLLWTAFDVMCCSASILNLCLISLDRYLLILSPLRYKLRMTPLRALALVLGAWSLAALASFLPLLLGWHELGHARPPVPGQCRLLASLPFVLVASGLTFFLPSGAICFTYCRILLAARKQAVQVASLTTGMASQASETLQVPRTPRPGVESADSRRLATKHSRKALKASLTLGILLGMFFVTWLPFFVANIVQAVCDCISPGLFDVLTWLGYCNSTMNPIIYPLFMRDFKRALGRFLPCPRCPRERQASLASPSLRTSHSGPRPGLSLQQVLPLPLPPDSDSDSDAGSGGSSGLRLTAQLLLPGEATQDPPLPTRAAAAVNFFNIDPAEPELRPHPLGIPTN
UniProt Q8IYT8, sequence (whole entry, looked up): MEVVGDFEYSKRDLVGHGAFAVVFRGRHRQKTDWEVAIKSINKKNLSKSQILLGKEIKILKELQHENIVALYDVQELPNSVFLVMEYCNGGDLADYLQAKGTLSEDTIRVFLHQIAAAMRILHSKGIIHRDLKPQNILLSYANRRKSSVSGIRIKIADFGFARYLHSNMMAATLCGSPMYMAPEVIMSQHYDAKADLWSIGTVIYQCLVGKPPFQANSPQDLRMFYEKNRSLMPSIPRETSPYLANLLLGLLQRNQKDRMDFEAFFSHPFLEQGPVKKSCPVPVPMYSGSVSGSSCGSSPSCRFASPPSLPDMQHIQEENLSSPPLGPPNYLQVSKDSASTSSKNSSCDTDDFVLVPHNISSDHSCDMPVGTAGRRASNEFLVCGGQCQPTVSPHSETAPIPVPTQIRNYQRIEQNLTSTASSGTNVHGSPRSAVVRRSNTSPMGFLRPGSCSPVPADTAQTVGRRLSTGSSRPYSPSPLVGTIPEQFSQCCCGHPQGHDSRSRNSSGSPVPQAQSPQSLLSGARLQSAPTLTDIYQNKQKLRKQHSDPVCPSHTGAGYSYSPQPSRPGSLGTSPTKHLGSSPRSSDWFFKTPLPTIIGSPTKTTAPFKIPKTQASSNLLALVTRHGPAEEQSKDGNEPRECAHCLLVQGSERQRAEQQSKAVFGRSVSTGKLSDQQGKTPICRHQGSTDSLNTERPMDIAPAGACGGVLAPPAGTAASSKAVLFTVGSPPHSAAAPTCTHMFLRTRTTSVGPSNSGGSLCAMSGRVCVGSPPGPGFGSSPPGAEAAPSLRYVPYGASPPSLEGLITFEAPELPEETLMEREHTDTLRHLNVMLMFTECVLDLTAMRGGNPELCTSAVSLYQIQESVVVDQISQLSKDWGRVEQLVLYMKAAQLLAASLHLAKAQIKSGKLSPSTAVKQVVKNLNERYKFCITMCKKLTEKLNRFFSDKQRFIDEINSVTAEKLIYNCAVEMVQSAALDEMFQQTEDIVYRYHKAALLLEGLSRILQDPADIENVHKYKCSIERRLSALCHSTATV
UniProt Q16584, sequence (whole entry, looked up): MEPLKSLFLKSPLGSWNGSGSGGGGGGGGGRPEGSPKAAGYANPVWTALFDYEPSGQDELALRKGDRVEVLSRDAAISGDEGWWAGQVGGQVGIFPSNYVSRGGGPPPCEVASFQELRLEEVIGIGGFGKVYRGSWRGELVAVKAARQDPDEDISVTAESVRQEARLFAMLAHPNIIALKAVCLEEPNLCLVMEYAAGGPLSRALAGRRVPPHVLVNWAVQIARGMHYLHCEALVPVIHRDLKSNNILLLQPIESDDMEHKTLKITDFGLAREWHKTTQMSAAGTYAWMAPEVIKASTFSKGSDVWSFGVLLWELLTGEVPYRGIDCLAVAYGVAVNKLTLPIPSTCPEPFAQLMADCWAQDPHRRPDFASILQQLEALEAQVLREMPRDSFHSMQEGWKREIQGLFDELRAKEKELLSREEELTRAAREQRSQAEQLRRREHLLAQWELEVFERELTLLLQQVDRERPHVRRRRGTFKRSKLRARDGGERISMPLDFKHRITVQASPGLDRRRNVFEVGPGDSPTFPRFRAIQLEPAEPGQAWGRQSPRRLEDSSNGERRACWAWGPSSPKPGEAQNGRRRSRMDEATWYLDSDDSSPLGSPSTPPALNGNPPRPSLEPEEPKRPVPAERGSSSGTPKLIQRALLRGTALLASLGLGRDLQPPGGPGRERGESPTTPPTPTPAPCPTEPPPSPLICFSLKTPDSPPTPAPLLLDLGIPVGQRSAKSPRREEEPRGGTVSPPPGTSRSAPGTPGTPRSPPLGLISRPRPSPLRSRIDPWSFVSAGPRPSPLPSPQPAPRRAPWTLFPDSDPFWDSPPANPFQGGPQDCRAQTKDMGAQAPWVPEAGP
UniProt P08908, sequence (whole entry, looked up): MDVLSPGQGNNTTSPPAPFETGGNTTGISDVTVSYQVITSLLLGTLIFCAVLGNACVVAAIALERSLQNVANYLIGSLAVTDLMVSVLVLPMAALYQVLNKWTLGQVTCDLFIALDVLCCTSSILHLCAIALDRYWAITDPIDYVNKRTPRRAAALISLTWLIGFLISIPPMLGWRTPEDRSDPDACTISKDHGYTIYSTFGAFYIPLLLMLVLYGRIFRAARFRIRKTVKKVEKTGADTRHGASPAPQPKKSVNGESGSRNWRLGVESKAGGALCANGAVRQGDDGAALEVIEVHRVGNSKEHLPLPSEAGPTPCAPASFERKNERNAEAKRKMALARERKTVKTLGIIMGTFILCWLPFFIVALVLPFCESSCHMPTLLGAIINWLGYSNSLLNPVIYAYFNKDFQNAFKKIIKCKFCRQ
UniProt P35408, sequence (whole entry, looked up): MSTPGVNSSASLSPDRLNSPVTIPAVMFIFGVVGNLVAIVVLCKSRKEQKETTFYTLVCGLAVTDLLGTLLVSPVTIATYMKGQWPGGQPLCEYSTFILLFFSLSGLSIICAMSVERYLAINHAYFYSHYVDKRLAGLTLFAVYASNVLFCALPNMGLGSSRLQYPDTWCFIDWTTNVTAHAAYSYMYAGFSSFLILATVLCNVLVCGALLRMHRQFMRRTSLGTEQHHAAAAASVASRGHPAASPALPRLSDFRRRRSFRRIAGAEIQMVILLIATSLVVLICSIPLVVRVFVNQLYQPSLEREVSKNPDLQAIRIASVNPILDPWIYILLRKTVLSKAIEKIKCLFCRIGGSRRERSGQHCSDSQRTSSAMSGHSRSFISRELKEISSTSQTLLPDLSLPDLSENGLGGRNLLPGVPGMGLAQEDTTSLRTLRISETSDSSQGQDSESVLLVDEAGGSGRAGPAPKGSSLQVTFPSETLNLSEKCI

| SMILES | target | test | system | conditions | inhibition |
| --- | --- | --- | --- | --- | --- |
| CCc1nnc(-c2c(OC)cc(-c3cnc4cc(-c5cnn(C)c5)ccn34)cc2OC)o1 | 5-hydroxytryptamine receptor 1A (HTR1A, Homo sapiens, UniProt P08908) | agonist radioligand, radioligand binding |  | 10 µM, SafetyScreen44 5-HT1A | 1% |
| CN(/N=C/c1ccccc1C(=O)O)c1nc(-c2ccccc2Cl)cs1 | Protein-tyrosine kinase 2-beta (PTK2B, Homo sapiens, UniProt Q14289) | enzyme activity, inhibitor |  | 1 µM | -27.6% |
| CN[C@@H]1[C@H](O)[C@H](NC)[C@H]2O[C@]3(O)[C@H](O[C@@H]2[C@H]1O)O[C@H](C)C[C@H]3NC(=O)Cc1ccc(Cl)cn1 | Beta-1 adrenergic receptor (ADRB1, Homo sapiens, UniProt P08588) | ligand displacement, radioligand |  | 10 µM | 2% |
| O=C1c2ccccc2CCCN1CCCCN1CCN(c2cccc(Cl)c2Cl)CC1 | 5-hydroxytryptamine receptor 6 (HTR6, Homo sapiens, UniProt P50406) | radioligand binding |  | concentration not given, with: [3H]LSD | 87.6% |
| CN[C@@H]1[C@H](O)[C@H](NC)[C@H]2O[C@]3(O)[C@H](O[C@@H]2[C@H]1O)O[C@H](C)C[C@H]3NC(=O)Cc1cc(Cl)ccn1 | Prostaglandin E2 receptor EP4 subtype (PTGER4, Homo sapiens, UniProt P35408) | ligand displacement, radioligand |  | 10 µM | -6% |
| N[C@H](C(=O)N1CCCC1)C1CCN(c2nccc3c(-c4ncc(Cl)cc4Cl)cccc23)CC1 | Protein-arginine deiminase type-2 (PADI2, Homo sapiens, UniProt Q9Y2J8) | enzyme activity, GDH-coupled |  | 0.006291 µM, with: 1.5 mM Ca2+ (high) | -2.1% and 0.722% |
| C=CC(=O)Nc1cc(-c2nn(C3CCC(N4CCN(C(C)=O)CC4)CC3)c3ncnc(N)c23)ccc1Oc1ccccc1 (centres unmarked) | Ribosomal protein S6 kinase alpha-1, kinase domain 2 (RPS6KA1, Homo sapiens, UniProt Q15418) | inhibitor, KiNativ profiling | biochemical | 2 µM | -9.6% |
| O=C(O)c1ccccc1/C=N/Nc1nc(-c2ccccc2Cl)cs1 | Phosphatidylinositol 4,5-bisphosphate 3-kinase catalytic subunit beta isoform (PIK3CB, Homo sapiens, UniProt P42338) | enzyme activity, inhibitor |  | 1 µM | 14% |
| CS(C)(=O)=Nc1ccc(-c2ccc(-c3nc4cc(O[C@@H]5CO[C@H]6[C@@H]5OC[C@H]6O)[nH]c4cc3F)cc2)cc1 | Tyrosine-protein kinase receptor TYRO3 (TYRO3, Homo sapiens, UniProt Q06418) | enzyme activity, inhibitor |  | 10 µM | -6% |
| C/C(=N\OCCCN1CCCCC1)c1ccc(C(F)(F)F)cc1 | Potassium voltage-gated channel subfamily KQT member 1, with KCNE1 (KCNQ1, Homo sapiens, UniProt P51787) | ion current, antagonist, manual patch clamp |  | 10 µM | 41.1% |
| C[C@H](NCc1ccc(-c2ccc(C(F)(F)F)cc2)cc1)C(N)=O | Serine/threonine-protein kinase ULK2 (ULK2, Homo sapiens, UniProt Q8IYT8) | cell-free assay, competition with immobilised ligand |  | 1 µM | 0% |
| CCOC(=O)[C@](CC)(CCCSCCOCCOCCNC(=O)c1ccc(-c2c3ccc(=N)c(S(=O)(=O)O)c-3oc3c(S(=O)(=O)O)c(N)ccc23)c(C(=O)O)c1)NC(=O)c1ccc(C2CC2)c(Cc2ccc(F)cc2)n1 | Prostaglandin F2-alpha receptor (PTGFR, Homo sapiens, UniProt P43088) | ligand displacement, radioligand |  | 10 µM | 14% |
| O=C(O)CCn1c(=O)oc2cc(Cl)c(Cl)cc21 | Kynureninase (Homo sapiens, UniProt Q16719) | enzyme activity, inhibitor |  | 100 µM | -4.7% |
| Cc1ccc2c(n1)c(-c1cccc(S(C)(=O)=O)c1)c(C)n2C/C(F)=C/CN | CXCR2 | ligand displacement, radioligand |  | 10 µM | 3% |
| CC(NC(=O)c1ccccc1F)c1nnc2ccccn12 (centres unmarked) | Cholinesterase (BCHE, Homo sapiens, UniProt P06276) | enzyme activity, inhibitor, Ellman |  | 10 µM | 35.7% |
| CC(C)[C@H]1NC(=O)C[C@H]2/C=C/CCSSC[C@@H](NC1=O)C(=O)N[C@H](Cc1cccc3ccccc13)C(=O)NCC(=O)O2 | Epithelial discoidin domain-containing receptor 1 (DDR1, Homo sapiens, UniProt Q08345) | enzyme activity, inhibitor |  | 10 µM | -5.1% |
| N#Cc1ccc(N2N=C3c4ccc(C(=O)O)cc4CCC3C2C2CCCC2)cc1Cl (centres unmarked) | Histone-lysine N-methyltransferase SUV39H1 (SUV39H1, Homo sapiens, UniProt O43463) | enzyme activity, inhibitor |  | 10 µM | 3% |
| O=C(CN1CN(c2ccccc2)C2(CCN(C(=O)c3cnc4[nH]ncc4c3)CC2)C1=O)NCC(F)(F)F | Mitogen-activated protein kinase kinase kinase 11 (MAP3K11, Homo sapiens, UniProt Q16584) | inhibitor |  | concentration not given | < 50% |
| COc1ccc(F)cc1S(=O)(=O)Nc1cnc2c(c1)C(=O)NCCO2 | CXCR2 | ligand displacement, radioligand |  | 10 µM | 12% |
| CN(C)[C@H]1C[C@@]23CC[C@@]4(O2)C(=CC[C@]2(C)[C@@H](c5ccc6ccncc6c5)CC[C@H]24)C=C3[C@@H](O)[C@@H]1O | Tyrosine-protein kinase Fer (FER, Homo sapiens, UniProt P16591) | ATP probe labelling, inhibitor, KiNativ profiling |  | 0.1 µM | -2% |

Some of these lines once more:
| SMILES | target | test | system | conditions | inhibition |
| --- | --- | --- | --- | --- | --- |
| C/C(=N\OCCCN1CCCCC1)c1ccc(C(F)(F)F)cc1 | Potassium voltage-gated channel subfamily KQT member 1, with KCNE1 (KCNQ1, Homo sapiens, UniProt P51787) | ion current, antagonist, manual patch clamp |  | 10 µM | 41.1% |
| C[C@H](NCc1ccc(-c2ccc(C(F)(F)F)cc2)cc1)C(N)=O | Serine/threonine-protein kinase ULK2 (ULK2, Homo sapiens, UniProt Q8IYT8) | cell-free assay, competition with immobilised ligand |  | 1 µM | 0% |
